Results pooled from the literature.
Each line is one published result; not all experiments were run side by side. Values joined by “and” are separate records of one study, mostly repeats; a detail may differ.
Target: C-X-C chemokine receptor type 4 (CXCR4, Homo sapiens, UniProt P61073)
Sequence of UniProt P61073 (whole entry, looked up): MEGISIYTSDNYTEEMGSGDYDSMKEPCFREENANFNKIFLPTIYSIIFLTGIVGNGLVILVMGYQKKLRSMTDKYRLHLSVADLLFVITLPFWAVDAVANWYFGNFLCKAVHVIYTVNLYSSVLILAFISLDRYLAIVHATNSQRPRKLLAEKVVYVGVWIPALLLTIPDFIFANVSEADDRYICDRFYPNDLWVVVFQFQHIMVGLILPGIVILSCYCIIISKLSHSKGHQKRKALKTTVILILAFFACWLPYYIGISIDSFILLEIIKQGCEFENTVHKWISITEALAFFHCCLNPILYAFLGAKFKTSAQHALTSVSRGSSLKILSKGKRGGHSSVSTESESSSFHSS

Cc1ccc(S(=O)(=O)NCc2ccc(CNC(=O)c3ccc(Cl)cc3)cc2)cc1  EC (binding, inhibitor, competitive binding; MDA-MB-231; together with: biotinylated TN14003): 10 nM
CCn1c(COC(=O)c2ccccc2NC(=O)c2ccco2)nc2cc(S(=O)(=O)N(C)C)ccc21  inhibition (arrestin recruitment, antagonist, DiscoverX arrestin; 30 µM; reference: control): 0.48% and 0.17%
CC(C)NCCCC[C@@H]1NC(=O)[C@H](Cc2ccc(O)cc2)NC(=O)[C@H](Cc2ccccc2)NC(=O)CC[C@H](C(=O)N[C@@H](CCCCNC(C)C)C(=O)N[C@@H](CCCCNC(=O)[C@H](CCC(=O)O)NC(=O)[C@H](CCC(=O)O)NC(=O)[C@H](CCC(=O)O)NC(=O)CN2CCN(CC(=O)O)CCN(CC(=O)O)CC2)C(N)=O)NC(=O)CNC(=O)[C@H](Cc2ccc3ccccc3c2)NC(=O)[C@@H](CCCNC(=N)N)NC1=O [fluorine-18 labelled]  total cellular uptake (radioligand binding; U87.CD4.CXCR4 cells; concentration not given, 1 h): 7.14% and 7.1%
Cc1ccc(S(=O)(=O)NCc2ccc(CNC(=O)c3ccccc3F)cc2)cc1  EC (binding, inhibitor, competitive binding; MDA-MB-231; together with: biotinylated TN14003): 1000 nM
O=C(NCc1ccc(CNS(=O)(=O)c2ccc3c(c2)CCO3)cc1)c1cccc2c1COC2  effective concentration (binding, competitor; MDA-MB-231; semi-quantitative, together with: biotinylated TN14003): ~1000 nM
O=C(NCc1ccc(CNS(=O)(=O)c2ccccc2)cc1)c1ccccc1Cl  EC (binding, inhibitor, competitive binding; MDA-MB-231; together with: biotinylated TN14003): 10 nM
O=C(NCc1ccc(CNS(=O)(=O)c2cccc(F)c2)cc1)c1cc2ccccn2n1  effective concentration (binding, competitor; MDA-MB-231; semi-quantitative, together with: biotinylated TN14003): ~1000 nM
Cc1ccc(S(=O)(=O)NCc2ccc(CNC(=O)c3cccc(Cl)c3)cc2)cc1  EC (binding, inhibitor, competitive binding; MDA-MB-231; together with: biotinylated TN14003): 100 nM
Cc1nnsc1C(=O)NCc1ccc(CNS(=O)(=O)c2ccc(F)c(F)c2)cc1  effective concentration (binding, competitor; MDA-MB-231; semi-quantitative, together with: biotinylated TN14003): 10 nM
CC(C)NCCCC[C@H](NC(=O)[C@H]1CCC(=O)N[C@@H](Cc2ccccc2)C(=O)N[C@@H](Cc2ccc(O)cc2)C(=O)N[C@@H](CCCCNC(C)C)C(=O)N[C@H](CCCNC(=N)N)C(=O)N[C@@H](Cc2ccc3ccccc3c2)C(=O)NCC(=O)N1)C(N)=O  inhibition (radioligand uptake, competitor; U87.CD4.CXCR4 cells; 75 µM, 1 h, together with: [18F]AlF-NOTA-SC): 79%
CCc1ccc(NC(=O)c2nc(S(C)(=O)=O)ncc2N(Cc2ccccc2)Cc2ccco2)cc1  inhibition (arrestin recruitment, antagonist, DiscoverX arrestin; 30 µM; reference: control): 0.69% and 0.76%
Cn1nccc1C(=O)NCc1ccc(CNS(=O)(=O)c2ccc3c(c2)CCO3)cc1  effective concentration (binding, competitor; MDA-MB-231; semi-quantitative, together with: biotinylated TN14003): ~1000 nM
CCN(CC)CCOCCN(Cc1ccccc1)Cc1nc(Cc2ccccc2)no1  remaining activity (arrestin recruitment, antagonist, DiscoverX arrestin; 30 µM; reference: untreated): 0.15% and 0%
O=C(NCc1ccc(CNS(=O)(=O)c2ccccc2)cc1)c1ccc(Cl)cc1  EC (binding, inhibitor, competitive binding; MDA-MB-231; together with: biotinylated TN14003): 100 nM
N=C(N)NCCCC[C@@H]1NC(=O)CCSSC[C@@H](C(N)=O)NC(=O)[C@@H]2CCCN2C(=O)[C@H](Cc2c[nH]c3ccccc23)NC(=O)[C@H](CC(=O)O)NC(=O)CNC1=O  inhibition (arrestin recruitment, DiscoverX arrestin; 30 µM): -3% and -1%
Cc1ccc(S(=O)(=O)NCc2ccc(CNC(=O)c3c(Cl)cc(Cl)cc3Cl)cc2)cc1  EC (binding, inhibitor, competitive binding; MDA-MB-231; together with: biotinylated TN14003): 10 nM
CCc1ccc(OCc2nnc(SCc3nc(C)no3)n2Cc2ccccc2)cc1  inhibition (arrestin recruitment, antagonist, DiscoverX arrestin; 30 µM; reference: control): 0.53% and 0.21%
Cc1ccc(S(=O)(=O)NCc2ccc(CNC(=O)c3ccc(F)cc3)cc2)cc1  EC (binding, inhibitor, competitive binding; MDA-MB-231; together with: biotinylated TN14003): 1 nM
CCS(=O)(=O)c1ncc(N(Cc2ccccc2)Cc2ccco2)c(C(=O)Nc2ccccc2F)n1  remaining activity (arrestin recruitment, antagonist, DiscoverX arrestin; 30 µM; reference: untreated): 0.24% and 0.49%
O=C(NCc1ccc(CNS(=O)(=O)c2ccc3c(c2)CCO3)cc1)c1cccnc1  effective concentration (binding, competitor; MDA-MB-231; semi-quantitative, together with: biotinylated TN14003): ~1000 nM
CCS(=O)(=O)c1ncc(N(Cc2ccccc2)Cc2ccco2)c(C(=O)Nc2ccc(C)cc2)n1  remaining activity (arrestin recruitment, antagonist, DiscoverX arrestin; 30 µM; reference: untreated): 0.58% and 0.51%
CN1CCN(c2cc(-c3ccncc3)c(-c3ccc4ccccc4c3)nn2)CC1  activation (agonist, FLIPR; 12.5 µM): 2.5%

Excerpt of the above:
Cc1ccc(S(=O)(=O)NCc2ccc(CNC(=O)c3cccc(Cl)c3)cc2)cc1  EC (binding, inhibitor, competitive binding; MDA-MB-231; together with: biotinylated TN14003): 100 nM
Cc1nnsc1C(=O)NCc1ccc(CNS(=O)(=O)c2ccc(F)c(F)c2)cc1  effective concentration (binding, competitor; MDA-MB-231; semi-quantitative, together with: biotinylated TN14003): 10 nM
CC(C)NCCCC[C@H](NC(=O)[C@H]1CCC(=O)N[C@@H](Cc2ccccc2)C(=O)N[C@@H](Cc2ccc(O)cc2)C(=O)N[C@@H](CCCCNC(C)C)C(=O)N[C@H](CCCNC(=N)N)C(=O)N[C@@H](Cc2ccc3ccccc3c2)C(=O)NCC(=O)N1)C(N)=O  inhibition (radioligand uptake, competitor; U87.CD4.CXCR4 cells; 75 µM, 1 h, together with: [18F]AlF-NOTA-SC): 79%
